Measured values of several laboratories.
Every numbered part comes from another study and shows a few of its results, in no order.

Block 1 — technique: universal PBM; form: double-stranded DNA, one strand shown; sample: in vitro; tested at: not given; reading: higher = stronger binding; quantity: E-score
Target: Sal-like protein 4, full length isoform B (SALL4, Homo sapiens, UniProt Q9UJQ4-2, residues 1-616)
Notes: 8-mer, flanks averaged, mean of replicates
CGTTCCAA: 0.0948
ATCGGCCC: -0.226
CAGACTAG: -0.228
ACACATAG: 0.225
ATGTAGCG: 0.00246
GATTTAGA: 0.123
AATGGTAG: 0.201
CCGACACC: -0.229
ACAATGTG: 0.103
AAGTGATG: -0.0197
TCCGGACA: -0.177
ACAGGCGA: -0.128
CCGAAGTC: -0.0989
AAGAATTA: 0.313
CAAGACCA: -0.0491
ACCTGCCC: -0.331
ACATGGAA: 0.17

Block 2 — technique: protein-binding microarray; form: double-stranded DNA, one strand shown; sample: in vitro; tested at: 250 nM; notes: 60-bp whole probe; with: salmon DNA 0.4 mg/ml; baseline: random background probes; reading: higher = stronger binding; quantity: log fluorescence; constant ends, left off below: GCCTAGCAC … GTCTTGATTCGCTTGACGCTGCTG
Target: Interferon regulatory factor 7, full length, phosphomimetic (IRF7, Homo sapiens, UniProt Q92985, residues 1-503, S101K/S471D/S472D/S475D/S476D/S477D/S483D/S484D/S487D)
Construct (chain): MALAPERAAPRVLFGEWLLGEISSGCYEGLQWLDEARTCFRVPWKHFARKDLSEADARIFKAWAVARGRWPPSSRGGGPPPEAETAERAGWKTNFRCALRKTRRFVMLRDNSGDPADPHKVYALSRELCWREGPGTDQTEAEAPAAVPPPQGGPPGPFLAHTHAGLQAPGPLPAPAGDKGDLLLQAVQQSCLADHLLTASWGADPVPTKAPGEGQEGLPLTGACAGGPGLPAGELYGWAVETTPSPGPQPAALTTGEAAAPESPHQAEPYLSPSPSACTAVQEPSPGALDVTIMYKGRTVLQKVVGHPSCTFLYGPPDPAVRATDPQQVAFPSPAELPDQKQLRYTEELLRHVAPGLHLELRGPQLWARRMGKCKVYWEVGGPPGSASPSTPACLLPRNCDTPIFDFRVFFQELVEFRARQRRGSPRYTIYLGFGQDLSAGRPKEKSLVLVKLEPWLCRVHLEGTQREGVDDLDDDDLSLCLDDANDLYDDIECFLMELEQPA
GATGGACTGGGTTTCGGGACGTGCTAG: 1.78 z-score
GACGATATAAGTCTCGAGACGTGCTAG: 0.375 z-score
TTAGGACTGGACTATCGGGTAGTGCTA: -0.351 z-score
GACGGTATCGACTATCGGGTCGTGCTA: 0.0202 z-score
TAAGGAGGCAGGGATGCTCCGTGCTAG: -0.638 z-score
TTAGGTTCCCTTTCCCTTTAGTGCTAG: 3.55 z-score
TTAGGTCTCCCTTTCCTTTAGTGCTAG: 0.968 z-score
TCAGGTCTCCTACTGCTTTAGTGCTAG: -0.0701 z-score
TAAGGTATCGGTTTCGGTTAGTGCTAG: 11.1 z-score
TAAAGCATTACTTTAGGTTCGTGCTAG: 0.0564 z-score
TTAGGTATTGACTATCGGTTAGTGCTA: -0.391 z-score
TTAGGTTTCGGGACTGGGTAAGTGCTA: 3.97 z-score
TCAATTAGAATTTTCATACTGTGCTAG: 0.401 z-score
TTAGGACTGTGACTGGGTTAGTGCTAG: -0.43 z-score
GACGATTTCGGTATCGGGACGTGCTAG: 1.6 z-score
GACGATATCAGATTCGAGACGTGCTAG: 0.563 z-score
GTCGGACTGCTTATCCTGACGTGCTAG: -0.0731 z-score
GACGGTCTCGGGTTTCGGGACGTGCTA: 4.06 z-score

Block 3 — technique: RNA Bind-n-Seq; form: RNA; sample: in vitro; tested at: 365 nM; baseline: no-protein control; reading: higher = stronger binding; quantity: RBNS enrichment (R)
Target: RNA binding protein fox-1 homolog 2, RRM domain, GST-SBP tag (RBFOX2, Homo sapiens, UniProt O43251-10, residues 100-194)
Notes: natural RNA segment, single round, ends assumed
Constant ends, left off below: GGGAGUUCUACAGUCCGACGAUC … UGGAAUUCUCGGGUGCCAA
Residues (chain): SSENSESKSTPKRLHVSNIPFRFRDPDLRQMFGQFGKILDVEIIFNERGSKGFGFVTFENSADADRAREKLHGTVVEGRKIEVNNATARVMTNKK
AUGGGACGCAGGGCCCCAUCUGUCCCUCGGUCGCCGUGUGGCCAGAGUGGGUCCGUCGUCCCCAACACUCGUGCUCGCUCAGACACUUUGGCAGGAUGUCUGGGGCCUCA: 0.193
GCGCCAAAUGGUUUUCUUCUCAAUCUUAAAGCAGUAUACCUUUCCACAGGCUCGUCUGUGUCCCUGCCACUCUGAGUUAUCCAGAAACCACCACCUACAAAUGAGGGGAC: 0.197
UGUUGUUCAGUCAGCAGCCCUAGUCAUGGUUGCCAAUAGUUUUCCCAAGCAAGGCGUCACCGAGGAGGAAGAAAGGGGGUACUCUCAUGUCUGCUUACUCACAAAAACAG: 0.211
GCAGAAGAGCGUGGCCUCUCUUAUAGGGAAGAUGUAAUUAUGGAUCAAAGAGUGCUAAGAAAAUUGCGAAGAAGCCUUACUGCUUACACCAGAGAGCUCAGGGCAGCUUU: 0.417
UCUUAAUUUAAUCUUUGUACACCUUCCAUUUUUAAGUGCUUAAAUGAGUACUAUAUUGCAAUAAAAUGUAGUGAUAUAAUUAACCAGCCAUUAAAAAUUUACUUCUACAG: 0.588
AAGUCCUUAAUUUACAGUGGCCUGUAGCCUGUGGCCGUGGCCGUGGCUGUGGCCUGCUGCCUGCUCAUGAUGAGUGGCCUCUGUUGACUUGUUUCUGGUUCACGUGGGGC: 0.48
GCACUUUCAGUCCAAUAGGUGUAGGAAAUAGCGCUGUUUUUGUUGUGUGUGCAGGGAGGGCAGUUUUCUAAUGGAAUGGUUUGGGAAUAUCCAUGUACUUGUUUGCAAGC: 1.58
ACACAGGCCUCCUGUAGUCAUAGCAACAGAGAUGACCUAGGUGCACCCACCUUAGGUGGAGGACUUCCCCAUGCACACCACCACCCCUCUUAGAGCACAGGCUAAGGGCC: 0.451
ACUGCUGGGAGCCAUGUUUGUCACCUUAGUAGAAUGCACCAAUGUUCCCUUCUGCAUCUCUGGCCCUGUGGACAGAACACUUAUUGCUAGGUUAUCUAUCGUGUGGCAGG: 1.28
CAUAUUUGAAUUGGCCUGAACAGAUGUAAAUCGGGAAGGAUGGGAAAAACUGCAGUCAUCAACAAUGAUUAAUCAGCUGUUGCAGGCAGUGUCUUAAGGAGACUGGUAGG: 0.466
AUUGCCUGGCGCAGAAAGACAAGGAAACGGCAGCCAUUGCUGACUGUGACCACAUCAGGGCCUUGAAUCUUUGUACCUGACAGACCUGGGACCUGGAGUUCGGGCAGAUG: 0.34
GGAAAGAAAAAGAAAAAGCUGUACUUGGGAGGGGGAAGCUUCAUAUUUAUUUGGUUAUUCAAAAUACAUAUCAGAGUUUGGGUUUCCAGUCUUAGUUGCAUUUGUUGUUU: 1.61

Block 4 — technique: protein binding microarray; form: double-stranded DNA, one strand shown; sample: in vitro; tested at: not given; baseline: not given; reading: higher = stronger binding; quantity: E-score
Target: Histone acetyltransferase KAT6A, winged helix 1, GST fusion (KAT6A, Homo sapiens, UniProt Q92794, residues 1-85)
Notes: 8-mer, flanks averaged, mean of 2 arrays, mostly near background
Construct (chain): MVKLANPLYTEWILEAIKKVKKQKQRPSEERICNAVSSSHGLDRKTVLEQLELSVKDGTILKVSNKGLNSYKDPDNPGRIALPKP
ACTCGGGA: 0.133
GATGGCAA: -0.0525
TAGAATCA: -0.208
CCGCTCAC: 0.385
CAAAACTA: -0.144
ACGGGCTA: 0.24
AATTTGAT: -0.163
AAGAAGAT: 0.0189
ACTAACGG: 0.246
AGTGTCTA: -0.242
GTGATTGA: 0.00884
AAAAATCG: -0.117
CAGCCACG: -0.00949
AATGTAAA: -0.0252
ACGCACCC: 0.222
AGTTTAGG: -0.261
CAGGGAAA: -0.0719
CGTCTTAA: 0.0338
CTTCTACC: -0.081
GCGAAAGA: -0.0642
CCCATATC: -0.182
AAAACCCC: -0.0872
CTCGCTCA: 0.0618
ACCCACGA: -0.222
GATTAGGA: 0.0673

Block 5 — technique: aptamer microarray, sandwich; form: DNA with 2'F-ANA; sample: in vitro; tested at: 200 nM; with: Cy3 exosite-II aptamer, 400 nM; reading: higher = stronger binding; quantity: mean fluorescence intensity; oligonucleotide: GGTTGGTGTGGTTGG
Target: Prothrombin, mature alpha-thrombin (F2, Homo sapiens, UniProt P00734)
Notes: whole 15-mer aptamer, many near background
2'F-ANA at 2 6 9 11 12 13 14 15: 126 a.u.
2'F-ANA at 1 4 5 6 7 15: 53 a.u.
2'F-ANA at 2 6 7 8 9 10 12 13 15: 135 a.u.
2'F-ANA at 4 7 14: 216 a.u.
2'F-ANA at 4 5 7 11 12 13: 77.3 a.u.
2'F-ANA at 1 3 9: 297 a.u.
2'F-ANA at 1 3 5 7 10 11 12 15: 93.7 a.u.
2'F-ANA at 1 2 4 5 8 10 12: 47.2 a.u.
2'F-ANA at 1 2 3 4 5 6 8 9 10 12 13 14 15: 49 a.u.
2'F-ANA at 1 2 5 7 9 10 11 12 13 15: 69 a.u.
2'F-ANA at 3 4 8 13 15: 634 a.u.
2'F-ANA at 2 5 6 9 12: 168 a.u.
2'F-ANA at 1 2 3 4 5 6 8 9 10 14 15: 54.2 a.u.
2'F-ANA at 2 5 8 11: 65.8 a.u.
2'F-ANA at 1 2 3 4 5 6 7 15: 63.2 a.u.
2'F-ANA at 2 3 4 6 7 10 11 12 15: 245 a.u.
2'F-ANA at 6 9 14 15: 161 a.u.
2'F-ANA at 1 4 5 7 9 10 11 12 13 14: 45.2 a.u.
2'F-ANA at 1 2 3 5 7 9: 65.7 a.u.
2'F-ANA at 1 2 3 6 10 13 14: 54.3 a.u.

Block 6 — technique: protein-binding microarray; form: double-stranded DNA, one strand shown; sample: in vitro; tested at: not given; reading: higher = stronger binding; quantity: E-score
Target: Transcriptional repressor CTCF (CTCF, Homo sapiens, UniProt P49711, residues 1-727, full length assumed)
Notes: k-mer, scored over probes, only values ≥0.25
Construct (chain): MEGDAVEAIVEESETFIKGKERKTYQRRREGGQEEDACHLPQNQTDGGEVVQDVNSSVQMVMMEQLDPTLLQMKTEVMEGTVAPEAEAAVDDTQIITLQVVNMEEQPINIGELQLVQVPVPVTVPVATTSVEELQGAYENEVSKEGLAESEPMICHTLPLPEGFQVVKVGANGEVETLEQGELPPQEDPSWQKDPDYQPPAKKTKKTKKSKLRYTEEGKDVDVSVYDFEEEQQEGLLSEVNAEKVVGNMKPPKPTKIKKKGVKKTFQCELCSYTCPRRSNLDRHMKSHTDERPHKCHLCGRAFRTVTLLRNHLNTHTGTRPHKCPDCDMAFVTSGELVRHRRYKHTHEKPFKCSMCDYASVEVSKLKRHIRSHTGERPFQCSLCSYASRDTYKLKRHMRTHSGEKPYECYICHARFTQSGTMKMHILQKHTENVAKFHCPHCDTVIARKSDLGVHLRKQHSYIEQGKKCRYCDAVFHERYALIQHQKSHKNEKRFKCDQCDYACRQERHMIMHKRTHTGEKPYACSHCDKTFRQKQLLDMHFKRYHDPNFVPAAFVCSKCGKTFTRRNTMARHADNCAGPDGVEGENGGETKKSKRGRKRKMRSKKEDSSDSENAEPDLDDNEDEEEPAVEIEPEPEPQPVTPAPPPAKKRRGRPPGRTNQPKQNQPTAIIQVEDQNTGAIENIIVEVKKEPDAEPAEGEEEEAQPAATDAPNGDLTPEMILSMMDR
AATATAAT: 0.334
GCGCATAC: 0.322
GCGCAAAC: 0.319
ACATTACA: 0.317
ATAATAAT: 0.346
ATATACAG: 0.285
AATTTTAT: 0.268
ATTATATG: 0.295
CCCCCTGC: 0.295
ATACAAAA: 0.359
ATACACTA: 0.261
AACAAGAA: 0.301
AACCACTA: 0.374
ATGTGATA: 0.322
CCGCCAGG: 0.351
ATGTATAA: 0.341
CCATAATA: 0.287
AATTTGTA: 0.285
AATTATAA: 0.299
CGCATTTA: 0.276

Excerpt of the above (block 6):
ATGTATAA: 0.341
AATTTGTA: 0.285
ATGTGATA: 0.322
AACAAGAA: 0.301
ATTATATG: 0.295
GCGCATAC: 0.322
CCGCCAGG: 0.351
ATACACTA: 0.261
CCATAATA: 0.287
AATTATAA: 0.299
GCGCAAAC: 0.319
CCCCCTGC: 0.295
AATATAAT: 0.334
AACCACTA: 0.374
AATTTTAT: 0.268
ATACAAAA: 0.359
ATATACAG: 0.285
CGCATTTA: 0.276
ATAATAAT: 0.346
